Measurements from different studies.
Every numbered part comes from another study and shows a few of its results, in no order. “And” joins repeats or separate records; there may be more than shown.
Sequence of UniProt P31749 (whole entry, looked up): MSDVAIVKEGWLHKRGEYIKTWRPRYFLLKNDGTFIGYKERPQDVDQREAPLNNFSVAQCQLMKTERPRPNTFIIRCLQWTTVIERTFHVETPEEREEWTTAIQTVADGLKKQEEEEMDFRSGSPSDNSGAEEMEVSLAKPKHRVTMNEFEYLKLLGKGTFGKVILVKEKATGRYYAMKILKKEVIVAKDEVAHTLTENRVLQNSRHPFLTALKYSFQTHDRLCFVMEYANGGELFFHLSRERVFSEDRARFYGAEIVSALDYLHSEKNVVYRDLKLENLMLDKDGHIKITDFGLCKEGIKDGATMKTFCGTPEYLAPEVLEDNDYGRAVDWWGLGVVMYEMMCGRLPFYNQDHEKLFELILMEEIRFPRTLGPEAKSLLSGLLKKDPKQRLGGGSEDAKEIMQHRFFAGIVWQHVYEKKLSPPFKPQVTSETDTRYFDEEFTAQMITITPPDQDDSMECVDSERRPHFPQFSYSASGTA
Sequence of UniProt Q16513 (whole entry, looked up): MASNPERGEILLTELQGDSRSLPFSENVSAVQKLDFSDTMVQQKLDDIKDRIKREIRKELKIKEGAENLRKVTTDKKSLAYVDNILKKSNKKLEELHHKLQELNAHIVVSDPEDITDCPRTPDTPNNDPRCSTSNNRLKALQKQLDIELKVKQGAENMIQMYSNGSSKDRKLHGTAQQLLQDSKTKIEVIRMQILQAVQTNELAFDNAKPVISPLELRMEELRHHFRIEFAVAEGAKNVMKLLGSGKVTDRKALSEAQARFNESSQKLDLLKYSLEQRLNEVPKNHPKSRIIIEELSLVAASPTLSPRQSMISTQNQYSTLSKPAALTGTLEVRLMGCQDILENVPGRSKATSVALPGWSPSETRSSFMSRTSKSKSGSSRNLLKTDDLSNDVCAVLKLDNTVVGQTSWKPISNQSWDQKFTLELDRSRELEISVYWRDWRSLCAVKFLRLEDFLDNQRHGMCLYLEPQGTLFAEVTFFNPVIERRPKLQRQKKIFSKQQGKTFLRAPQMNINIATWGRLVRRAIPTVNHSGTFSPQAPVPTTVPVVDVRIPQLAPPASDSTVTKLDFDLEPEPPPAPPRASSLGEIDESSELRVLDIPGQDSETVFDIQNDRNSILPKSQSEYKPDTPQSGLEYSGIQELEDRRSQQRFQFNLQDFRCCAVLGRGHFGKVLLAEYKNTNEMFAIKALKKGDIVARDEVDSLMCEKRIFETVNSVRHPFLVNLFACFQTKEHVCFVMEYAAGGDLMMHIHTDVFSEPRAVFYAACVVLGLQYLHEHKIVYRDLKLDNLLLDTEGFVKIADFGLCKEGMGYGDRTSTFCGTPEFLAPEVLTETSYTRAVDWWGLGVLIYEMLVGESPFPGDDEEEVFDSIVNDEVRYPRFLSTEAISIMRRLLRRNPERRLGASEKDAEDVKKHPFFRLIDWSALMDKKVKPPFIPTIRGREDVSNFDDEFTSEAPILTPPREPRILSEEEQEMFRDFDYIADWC
Sequence of UniProt Q9BQI3 (whole entry, looked up): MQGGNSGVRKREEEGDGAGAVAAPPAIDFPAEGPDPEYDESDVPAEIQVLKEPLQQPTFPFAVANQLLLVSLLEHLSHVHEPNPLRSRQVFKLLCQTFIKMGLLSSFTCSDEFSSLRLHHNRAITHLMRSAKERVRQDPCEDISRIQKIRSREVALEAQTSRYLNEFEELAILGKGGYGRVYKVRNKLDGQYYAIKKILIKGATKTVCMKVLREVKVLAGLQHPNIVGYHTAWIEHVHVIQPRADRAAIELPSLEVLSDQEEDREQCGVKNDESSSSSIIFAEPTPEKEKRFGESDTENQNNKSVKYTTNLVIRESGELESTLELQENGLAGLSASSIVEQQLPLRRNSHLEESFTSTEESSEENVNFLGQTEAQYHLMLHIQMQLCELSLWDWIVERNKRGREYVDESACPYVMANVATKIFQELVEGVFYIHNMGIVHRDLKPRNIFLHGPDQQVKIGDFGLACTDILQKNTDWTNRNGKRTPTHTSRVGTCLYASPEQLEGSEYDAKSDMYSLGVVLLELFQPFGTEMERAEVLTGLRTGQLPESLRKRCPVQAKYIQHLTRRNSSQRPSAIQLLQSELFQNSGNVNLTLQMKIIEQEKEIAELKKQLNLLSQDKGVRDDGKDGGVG
Sequence of UniProt Q9HBY8 (whole entry, looked up): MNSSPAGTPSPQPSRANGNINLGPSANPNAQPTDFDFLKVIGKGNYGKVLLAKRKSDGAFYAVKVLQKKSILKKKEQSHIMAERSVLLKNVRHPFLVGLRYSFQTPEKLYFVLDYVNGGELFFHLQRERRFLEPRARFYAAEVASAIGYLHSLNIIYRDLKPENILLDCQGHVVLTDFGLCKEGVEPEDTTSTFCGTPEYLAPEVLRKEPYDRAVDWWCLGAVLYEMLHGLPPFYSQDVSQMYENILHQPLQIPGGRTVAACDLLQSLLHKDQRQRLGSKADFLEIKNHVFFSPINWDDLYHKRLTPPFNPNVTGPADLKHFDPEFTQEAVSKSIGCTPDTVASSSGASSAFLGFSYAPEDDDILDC

Block 1 — method: competition with immobilised ligand; tested at: 1 µM
Compound: CS(=O)(=O)NCC[C@H](NC(=O)c1cncc2c1cnn2-c1ccc(F)cc1)c1ccnc(S(C)(=O)=O)c1
target	test	remaining binding
TNNI3K (Homo sapiens, UniProt Q59H18)	cell-free assay	100%
CDK2 (Homo sapiens, UniProt P24941)	cell-free assay	100%
PRKX (Homo sapiens, UniProt P51817)	cell-free assay	100%
FLT3 (Homo sapiens, UniProt P36888, D835V)	cell-free assay	100%
IRAK3 (Homo sapiens, UniProt Q9Y616)	cell-free assay	89%
SGK2 (Homo sapiens, UniProt Q9HBY8)	cell-free assay	94%
ACVR2B (Homo sapiens, UniProt Q13705)	binding	90%
RIOK3 (Homo sapiens, UniProt O14730)	cell-free assay	100%
PKN2 (Homo sapiens, UniProt Q16513)	cell-free assay	100%
ROCK2 (Homo sapiens, UniProt O75116)	cell-free assay	100%

Block 2 — effect on: enzyme activity; mode: inhibitor; tested at: 0.5 µM; reference: control
Compound: CO[C@H]1C[C@@H]2CC[C@@H](C)[C@@](O)(O2)C(=O)C(=O)N2CCCC[C@H]2C(=O)O[C@H]([C@H](C)C[C@@H]2CC[C@@H](O)[C@H](OC)C2)CC(=O)[C@H](C)/C=C(\C)[C@@H](O)[C@@H](OC)C(=O)[C@H](C)C[C@H](C)/C=C/C=C/C=C/1C
target	remaining activity [%]
HIPK1 (Homo sapiens, UniProt Q86Z02)	99.1
TAOK3 (Homo sapiens, UniProt Q9H2K8)	106
Cyclin-dependent kinase 3, with cyclin E (CDK3, Homo sapiens, UniProt Q00526)	102
PKN1 (Homo sapiens, UniProt Q16512)	96.2
PASK (Homo sapiens, UniProt Q96RG2)	101
FER (Homo sapiens, UniProt P16591)	92
ALK (Homo sapiens, UniProt Q9UM73)	115
MATK (Homo sapiens, UniProt P42679)	92
AKT1 (Homo sapiens, UniProt P31749)	104
NEK11 (Homo sapiens, UniProt Q8NG66)	73.6

Block 3 — effect on: enzyme activity; mode: inhibitor; tested at: 77 µM; reference: untreated
Target: DNA polymerase theta, ATPase domain (POLQ, Homo sapiens, UniProt O75417)
Sequence of UniProt O75417 (whole entry, unmodified, looked up): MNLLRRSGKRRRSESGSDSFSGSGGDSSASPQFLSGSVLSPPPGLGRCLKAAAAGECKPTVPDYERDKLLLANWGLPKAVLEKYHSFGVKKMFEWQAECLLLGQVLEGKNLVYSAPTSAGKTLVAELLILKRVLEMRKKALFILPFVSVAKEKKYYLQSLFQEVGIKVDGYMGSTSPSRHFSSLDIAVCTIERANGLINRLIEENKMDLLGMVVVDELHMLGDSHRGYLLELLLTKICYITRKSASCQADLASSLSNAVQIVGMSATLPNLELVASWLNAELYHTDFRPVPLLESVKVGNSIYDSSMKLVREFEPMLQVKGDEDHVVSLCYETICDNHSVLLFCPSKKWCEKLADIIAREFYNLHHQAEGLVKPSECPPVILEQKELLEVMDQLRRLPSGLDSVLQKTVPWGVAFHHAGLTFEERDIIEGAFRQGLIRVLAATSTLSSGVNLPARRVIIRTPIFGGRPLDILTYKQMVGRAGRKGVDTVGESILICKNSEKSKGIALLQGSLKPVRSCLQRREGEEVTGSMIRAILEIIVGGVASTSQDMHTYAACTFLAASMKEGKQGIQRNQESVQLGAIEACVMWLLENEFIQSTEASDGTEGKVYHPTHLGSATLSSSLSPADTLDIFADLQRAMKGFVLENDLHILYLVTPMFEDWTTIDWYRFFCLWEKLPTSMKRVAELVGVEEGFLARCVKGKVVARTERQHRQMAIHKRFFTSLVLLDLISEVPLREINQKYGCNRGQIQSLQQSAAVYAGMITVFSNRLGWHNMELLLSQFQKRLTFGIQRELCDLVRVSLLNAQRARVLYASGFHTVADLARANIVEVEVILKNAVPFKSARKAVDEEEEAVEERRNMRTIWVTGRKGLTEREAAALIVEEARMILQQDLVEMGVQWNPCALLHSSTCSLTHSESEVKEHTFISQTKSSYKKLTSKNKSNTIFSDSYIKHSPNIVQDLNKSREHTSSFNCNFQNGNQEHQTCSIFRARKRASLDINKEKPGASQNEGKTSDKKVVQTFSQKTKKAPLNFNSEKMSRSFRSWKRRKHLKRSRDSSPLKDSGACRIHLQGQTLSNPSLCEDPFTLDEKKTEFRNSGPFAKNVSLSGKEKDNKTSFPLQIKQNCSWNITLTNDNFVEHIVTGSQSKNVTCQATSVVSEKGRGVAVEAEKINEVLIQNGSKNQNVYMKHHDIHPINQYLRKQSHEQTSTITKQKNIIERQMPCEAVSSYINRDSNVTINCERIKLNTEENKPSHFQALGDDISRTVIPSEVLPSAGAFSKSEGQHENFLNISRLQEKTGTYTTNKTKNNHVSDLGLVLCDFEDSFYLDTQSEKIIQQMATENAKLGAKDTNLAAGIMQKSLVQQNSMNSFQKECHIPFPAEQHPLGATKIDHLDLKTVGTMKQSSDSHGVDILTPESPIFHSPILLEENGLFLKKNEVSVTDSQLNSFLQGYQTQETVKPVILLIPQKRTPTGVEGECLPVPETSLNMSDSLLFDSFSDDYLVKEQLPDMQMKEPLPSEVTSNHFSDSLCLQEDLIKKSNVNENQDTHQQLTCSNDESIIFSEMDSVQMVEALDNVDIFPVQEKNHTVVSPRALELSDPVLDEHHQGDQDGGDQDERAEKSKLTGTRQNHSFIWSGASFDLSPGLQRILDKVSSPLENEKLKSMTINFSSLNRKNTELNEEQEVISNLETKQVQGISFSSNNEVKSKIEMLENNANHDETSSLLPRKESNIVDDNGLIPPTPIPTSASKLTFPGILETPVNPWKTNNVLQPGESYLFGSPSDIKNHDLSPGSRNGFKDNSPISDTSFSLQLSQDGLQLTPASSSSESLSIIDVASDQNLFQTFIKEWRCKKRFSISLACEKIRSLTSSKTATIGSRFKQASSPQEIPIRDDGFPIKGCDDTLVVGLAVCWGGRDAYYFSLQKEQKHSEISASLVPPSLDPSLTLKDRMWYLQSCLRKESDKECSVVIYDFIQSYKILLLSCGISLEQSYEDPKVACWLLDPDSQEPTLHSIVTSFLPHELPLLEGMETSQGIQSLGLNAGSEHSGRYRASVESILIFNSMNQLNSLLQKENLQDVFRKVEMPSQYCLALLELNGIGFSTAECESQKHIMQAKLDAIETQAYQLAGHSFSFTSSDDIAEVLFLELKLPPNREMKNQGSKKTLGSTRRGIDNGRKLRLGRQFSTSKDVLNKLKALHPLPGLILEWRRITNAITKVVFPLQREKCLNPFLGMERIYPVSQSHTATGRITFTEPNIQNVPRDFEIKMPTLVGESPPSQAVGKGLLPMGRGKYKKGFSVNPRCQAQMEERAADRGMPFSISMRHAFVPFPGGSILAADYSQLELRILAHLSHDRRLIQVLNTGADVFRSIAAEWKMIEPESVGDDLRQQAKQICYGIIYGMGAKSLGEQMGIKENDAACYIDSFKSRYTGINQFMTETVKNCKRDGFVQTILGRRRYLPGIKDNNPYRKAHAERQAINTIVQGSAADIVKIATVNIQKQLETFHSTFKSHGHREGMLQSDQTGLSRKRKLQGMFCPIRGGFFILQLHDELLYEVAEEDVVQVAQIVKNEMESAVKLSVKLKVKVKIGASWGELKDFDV
SMILES	remaining activity
O=C1Cc2c([nH]c3ccc(Br)cc23)-c2ncccc2N1	97.6% and 92%
Cn1c(=O)c(-c2c(Cl)cccc2Cl)cc2cnc(Nc3ccc(N4CCOCC4)cc3)nc21	99.7%
CC(=O)OCC(CCn1cnc2cnc(N)nc21)COC(C)=O	96.1%
CC(=O)Oc1cc(C(F)(F)F)ccc1C(=O)O	92.8% and 81.3%
CC(=O)O[C@]1(C(C)=O)CC[C@H]2[C@@H]3C=C(C)C4=CC(=O)CC[C@@H]4[C@H]3CC[C@@]21C	88.9%
CCN1CCCC1CNC(=O)c1cc(S(=O)(=O)CC)c(N)cc1OC (centres unmarked)	105%
O=C(O)C1=CO[C@@H](O[C@@H]2O[C@H](CO)[C@@H](O)[C@H](O)[C@H]2O)[C@@H]2C(CO)=CC[C@H]12	101%
O=C(O)c1cc(-c2ccccc2)nc2ccccc12	92.5%

Block 4 — mode: inhibitor; tested at: 1 µM
Structure (SMILES): CC#CC(=O)N1CCC[C@H]1c1nc(-c2ccc(C(=O)Nc3ccccn3)cc2)c2c(N)nccn12
target	test	inhibition
TSSK3 (Homo sapiens, UniProt Q96PN8)	enzyme activity	3%
WEE1 (Homo sapiens, UniProt P30291)	enzyme activity	0%
PKMYT1 (Homo sapiens, UniProt Q99640)	enzyme activity	13%
EIF2AK1 (Homo sapiens, UniProt Q9BQI3)	enzyme activity	0%
Ribosomal protein S6 kinase alpha-5, N-terminal kinase domain (RPS6KA5, Homo sapiens, UniProt O75582)	–	8%
PDGFRA (Homo sapiens, UniProt P16234)	enzyme activity	1%
STK4 (Homo sapiens, UniProt Q13043)	enzyme activity	0%
AKT1 (Homo sapiens, UniProt P31749)	enzyme activity	0%
STK17B (Homo sapiens, UniProt O94768)	enzyme activity	0%
NEK6 (Homo sapiens, UniProt Q9HC98)	enzyme activity	8%
